Published values collected from several papers.
Compare with care: the assays were run in different laboratories. Several values in a cell are separate wells, animals, samples, runs or records. ± gives the spread as reported.
UniProt Q99759, sequence (whole entry, looked up): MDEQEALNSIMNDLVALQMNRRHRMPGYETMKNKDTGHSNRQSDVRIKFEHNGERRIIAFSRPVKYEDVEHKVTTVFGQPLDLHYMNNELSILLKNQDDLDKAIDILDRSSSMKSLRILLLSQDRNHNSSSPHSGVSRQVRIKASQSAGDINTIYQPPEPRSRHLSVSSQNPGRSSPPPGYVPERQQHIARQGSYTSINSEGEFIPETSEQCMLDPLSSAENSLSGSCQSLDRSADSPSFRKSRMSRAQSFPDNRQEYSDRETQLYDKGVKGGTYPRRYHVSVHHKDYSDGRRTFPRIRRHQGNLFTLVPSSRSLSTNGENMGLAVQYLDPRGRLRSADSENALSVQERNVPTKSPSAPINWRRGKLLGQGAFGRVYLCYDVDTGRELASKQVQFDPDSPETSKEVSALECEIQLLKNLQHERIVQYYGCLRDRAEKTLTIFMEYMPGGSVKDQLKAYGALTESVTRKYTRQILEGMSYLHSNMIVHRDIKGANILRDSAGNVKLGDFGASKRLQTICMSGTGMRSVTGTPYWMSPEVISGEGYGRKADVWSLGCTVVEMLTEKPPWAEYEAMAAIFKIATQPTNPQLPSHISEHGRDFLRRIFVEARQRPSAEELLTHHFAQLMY
UniProt Q9NYA1, sequence (whole entry, looked up): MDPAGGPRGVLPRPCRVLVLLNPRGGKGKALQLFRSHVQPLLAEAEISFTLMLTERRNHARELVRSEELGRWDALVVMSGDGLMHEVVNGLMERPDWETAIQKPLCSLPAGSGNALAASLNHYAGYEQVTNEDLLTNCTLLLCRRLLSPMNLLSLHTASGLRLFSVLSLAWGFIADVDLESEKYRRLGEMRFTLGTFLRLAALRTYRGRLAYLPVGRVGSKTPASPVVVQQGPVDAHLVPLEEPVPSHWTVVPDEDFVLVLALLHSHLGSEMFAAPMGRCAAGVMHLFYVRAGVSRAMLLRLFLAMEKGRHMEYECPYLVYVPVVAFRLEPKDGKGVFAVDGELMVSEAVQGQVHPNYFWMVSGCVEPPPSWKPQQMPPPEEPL

SMILES	tested on	assay	test system	setting	how to read	quantity	result
COc1ccccc1-c1n[nH]c2nc(NC3CCN(C(=O)Cc4ccc(F)cc4F)CC3)ncc12	–	bead binding, competition bead pull-down, item: LINJ.29.0860	Leishmania donovani extract	10 µM	reference: vehicle	relative abundance	0.99
CC[C@H](C)[C@H](NC(=O)[C@H](C)NC(=O)[C@H](CCCCN)NC(=O)[C@H](CC(C)C)NC(=O)[C@@H](N)Cc1ccccc1)C(=O)N[C@@H](CCCCN)C(=O)N[C@@H](CCCCN)C(=O)N[C@@H](Cc1ccccc1)C(=O)NCC(=O)N[C@@H](CCCCN)C(=O)N[C@@H](CCC(=O)O)C(=O)N[C@@H](Cc1ccccc1)C(=O)N[C@@H](CCCCN)C(=O)N[C@@H](CCCCN)C(=O)N[C@H](C(=O)NCC(=O)N[C@@H](C)C(=O)N[C@@H](CCCCN)C(=O)N[C@@H](CC(C)C)C(=O)N[C@@H](CCCCN)C(=O)O)[C@@H](C)CC	HaCaT	cell growth or viability, MTT	–	32 µg/mL	–	viability	89.6%
CC(C)C[C@H](NC(=O)[C@H](CCCNC(=N)N)NC(=O)[C@H](C)NC(=O)[C@H](CC(C)C)NC(=O)[C@H](CCCNC(=N)N)NC(=O)[C@H](C)NC(=O)[C@H](CCCCN)NC(=O)[C@H](CC(C)C)NC(=O)[C@H](CCCNC(=N)N)NC(=O)[C@H](Cc1ccc(O)cc1)NC(=O)[C@H](CC(C)C)NC(=O)[C@H](CCCNC(=N)N)NC(=O)[C@H](C)NC(=O)[C@H](CCCNC(=N)N)NC(=O)[C@H](CC(C)C)NC(=O)[C@H](CCCCN)NC(=O)[C@H](C)NC(=O)[C@H](CC(C)C)NC(=O)[C@H](CCCNC(=N)N)NC(=O)[C@H](C)NC(=O)[C@@H](N)CCCCN)C(N)=O	human erythrocytes	haemolysis	–	–	–	LC50	104 µM
CC[C@H](C)[C@H](NC(=O)[C@H](Cc1c[nH]c2ccccc12)NC(=O)[C@H](CCCCN)NC(=O)[C@H](CC(C)C)NC(=O)[C@@H](NC(=O)[C@@H](NC(=O)CNC(=O)[C@H](CCCCN)NC(=O)[C@H](Cc1c[nH]cn1)NC(=O)[C@H](CCCCN)NC(=O)[C@H](Cc1c[nH]c2ccccc12)NC(=O)[C@H](C)NC(=O)[C@H](CC(C)C)NC(=O)[C@H](CO)NC(=O)[C@@H](NC(=O)[C@H](Cc1ccc(O)cc1)NC(=O)[C@H](CCCCN)NC(=O)[C@H](CCC(N)=O)NC(=O)CNC(=O)[C@H](CCCCN)NC(=O)[C@@H](NC(=O)[C@H](C)NC(=O)[C@H](CC(C)C)NC(=O)[C@H](Cc1ccccc1)NC(=O)[C@H](CCC(N)=O)NC(=O)[C@@H](NC(=O)[C@H](CC(C)C)NC(=O)[C@H](CCCCN)NC(=O)[C@H](CCSC)NC(=O)[C@H](Cc1ccccc1)NC(=O)[C@H](C)NC(=O)[C@H](C)NC(=O)[C@@H](N)CCSC)[C@@H](C)CC)[C@@H](C)O)C(C)C)[C@@H](C)O)[C@@H](C)CC)C(=O)N[C@@H](CC(N)=O)C(N)=O	human erythrocytes	hemolysis	–	pH 7.2	reference: water complete hemolysis	HD50	200 µg/mL
CC(C)C[C@H](NC(=O)[C@@H](NC(=O)[C@H](CCCNC(=N)N)NC(=O)[C@H](CCC(N)=O)NC(=O)[C@H](Cc1ccccc1)NC(=O)[C@H](Cc1ccc(O)cc1)NC(=O)[C@H](CC(N)=O)NC(=O)[C@H](Cc1c[nH]c2ccccc12)NC(=O)[C@@H](NC(=O)[C@H](CCCNC(=N)N)NC(=O)[C@H](CCCCN)NC(=O)[C@@H](N)Cc1ccccc1)C(C)C)C(C)C)C(=O)N[C@H](C(=O)N[C@@H](CCCCN)C(=O)N[C@@H](CCCCN)C(=O)N[C@@H](Cc1ccc(O)cc1)C(N)=O)C(C)C	rat erythrocytes	–	–	200 µM, 60 min, 37 °C	–	hemolysis	62.7 ± 0.2%
CN(C)[C@H]1C[C@@]23CC[C@@]4(O2)C(=CC[C@]2(C)[C@@H](c5ccc6ccncc6c5)CC[C@H]24)C=C3[C@@H](O)[C@@H]1O	MAP3K3 (Homo sapiens, UniProt Q99759)	ATP probe labelling, inhibitor, KiNativ profiling	–	1 µM	–	inhibition	18.2%
CNC(=O)C[C@H](Cc1ccncc1)NC(=O)[C@@H](Cc1cccc(Br)c1)NC(=O)[C@@H](N)Cc1ccsc1	Huh-7-ACE2	CellTiter-Glo	–	3.125 µM, 48 h, unit not given	reference: DMSO	viability	0.994 and 1.02 and 0.927
CC(C)(C)C(=O)OCOP(=O)(OCOC(=O)C(C)(C)C)C1CCCN(O)C1=O (stereo not drawn)	NCI-H226	–	–	–	–	log TGI	-5.02 log M
COc1cc(/C=C/C(=O)Oc2cc(C(F)(F)F)cc(C(F)(F)F)c2)ccc1O	HaCaT	cell growth or viability, MTT	–	24 h	–	CC50	25.1 µM
COC(=O)c1cc2c(=O)n3ccccc3nc2n1Cc1ccccc1	Vero	cytotoxicity, MTT	–	24 (unit not given)	–	IC50	202 µM
NC(=O)N/N=C/c1ccc(OCc2ccccc2)cc1	IMR-32	MTT	–	500 µg/mL, 24 h	reference: untreated control	viability	9.47%
CC(=O)c1c(O)c(C)c(O)c2c1OC1=CC(=O)C(=C(C)NCCCCO)C(=O)C12C (stereo not drawn)	L6 rat skeletal myoblasts	cytotoxicity, Alamar Blue	–	–	–	IC50	13.6 µM
CC(C)[C@H]1NC(=O)C[C@H]2/C=C/CCSSC[C@@H](NC1=O)C(=O)N[C@H](Cc1cccc3ccccc13)C(=O)NCC(=O)O2	SPHK1 (Homo sapiens, UniProt Q9NYA1)	enzyme activity, inhibitor	–	10 µM	–	inhibition	-3.6%
O=C1NC2(CC2)COc2ncc(F)cc2[C@H]2COCCN2c2ccn3ncc1c3n2	–	–	Sprague-Dawley rat, female, serum	oral, 10 mg/kg/day, end of recovery, 4-week subacute toxicity	–	serum urea	4.15 ± 0.55 mmol/L
CC(C)C[C@H](NC(=O)[C@@H](NC(=O)[C@H](CCCCN)NC(=O)[C@H](CCCCN)NC(=O)[C@H](CC(C)C)NC(=O)[C@H](Cc1c[nH]c2ccccc12)NC(=O)[C@H](CCCCN)NC(=O)[C@H](Cc1c[nH]c2ccccc12)NC(=O)[C@H](CC(C)C)NC(=O)[C@H](CCCCN)NC(=O)[C@H](CCCCN)NC(=O)[C@@H](N)C(C)C)C(C)C)C(N)=O	sheep red blood cells	10% haemolysis	–	1 h, 37 °C	–	minimum haemolytic concentration	89 µM

For quick reference, copied from above:
SMILES	tested on	assay	test system	setting	how to read	quantity	result
COc1cc(/C=C/C(=O)Oc2cc(C(F)(F)F)cc(C(F)(F)F)c2)ccc1O	HaCaT	cell growth or viability, MTT	–	24 h	–	CC50	25.1 µM
